Assay results collected from several papers.
Lines come from different studies, so protocols differ. Several values in a cell are separate wells, animals, samples, runs or records. ± marks the error that the study gave.
folP: Dihydropteroate synthase (folP, Bacteria, UniProt P0AC13)
T1: RNA aptamer; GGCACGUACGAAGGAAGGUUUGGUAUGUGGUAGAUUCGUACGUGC
T2: RNA aptamer; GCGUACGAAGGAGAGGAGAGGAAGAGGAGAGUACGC
T3: RNA aptamer, L4 loop replaced by UUCG; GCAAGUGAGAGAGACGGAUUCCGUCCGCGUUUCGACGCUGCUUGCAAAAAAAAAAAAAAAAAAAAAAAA
T4: RNA aptamer; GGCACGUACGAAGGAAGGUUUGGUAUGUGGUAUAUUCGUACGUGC

target = folP; test = CETSA HiBiT; system = Escherichia coli, whole cells; conditions = concentration not given; how to read = reference: DMSO; endpoint = melting temperature shift; value = 5.72 °C; Compound = Nc1nc2[nH]nc(CC(=O)O)c(=O)c2c(=O)[nH]1
target = Transcription initiation factor TFIID subunit 1, BD2 (TAF1, Homo sapiens, UniProt P21675); test = binding, competition with immobilised ligand; conditions = 10 µM; endpoint = remaining binding; value = 3.1%; Compound = CC(=O)N1c2ccc(-c3ccc(CNC(=O)c4cn5cc(-c6cnc(N)nc6)nc(N6CCOCC6)c5n4)cc3)cc2CC[C@@H]1C
target = Glutamate NMDA receptor; GRIN1/GRIN2A (Homo sapiens, UniProt Q05586+Q12879); test = ion current, agonist, whole-cell patch clamp; system = HEK293T; conditions = 10 µM; endpoint = activation; value = 4.31 ± 0.04%; Compound = CC(=O)C12NC(C)(C)CC1(C)C(=O)C1=C2c2c(c3c4n2C(C)(C)CC2=C4C4(CC(C)(C)NC(C)(C4)C2=O)CC3(C)C)C(=O)C(C)(C)N1 (single isomer, unassigned; (-))
target = GTPase KRas, GDP-bound (KRAS, Homo sapiens, UniProt P01116, C118S/C51S/C80L); test = thermal stability, refers to: KRAS-GDP; conditions = 100 µM; how to read = reference: DMSO; endpoint = ΔTm; value = 20 ± 0.2 °C; Compound = C=CC(=O)N1C[C@H](C)N(c2nc(OC[C@@]34CCCN3C[C@H](F)C4)nc3c(F)c(-c4ccc(F)c5sc(N)c(C#N)c45)c(C(F)(F)F)cc23)C[C@H]1C
target = Induced myeloid leukemia cell differentiation protein Mcl-1 homolog, residues 152-308 (Mus musculus, UniProt P97287); test = binding, SPR; conditions = 0.2% DMSO; endpoint = koff; value = 0.0083 s⁻¹; Compound = CC[C@H](NC(=O)[C@H](CCC(=O)O)NC(=O)[C@H](CCCNC(=N)N)NC(=O)[C@H](C)NC(=O)[C@H](Cc1c[nH]c2ccccc12)NC(=O)[C@H](CCC(=O)O)NC(=O)[C@H](CCC(=O)O)NC(=O)[C@H](CCC(=O)O)NC(C)=O)C(=O)NCC(=O)N[C@@H](C)C(=O)N[C@@H](CCC(N)=O)C(=O)N[C@@H](CC(C)C)C(=O)N[C@@H](CCCNC(=N)N)C(=O)N[C@@H](CCCNC(=N)N)C(=O)N[C@@H](C)C(=O)N[C@@H](C)C(=O)N[C@@H](CC(=O)O)C(=O)N[C@@H](CC(=O)O)C(=O)N[C@@H](CC(C)C)C(=O)N[C@@H](CC(N)=O)C(=O)N[C@@H](C)C(=O)N[C@@H](CCC(N)=O)C(=O)N[C@@H](Cc1ccc(O)cc1)C(=O)N[C@@H](CCC(=O)O)C(=O)N[C@@H](CCCNC(=N)N)C(=O)N[C@@H](CCCNC(=N)N)C(=O)N[C@@H](CCCNC(=N)N)C(N)=O
target = Tyrosine-protein phosphatase non-receptor type 1 (PTPN1, Homo sapiens, UniProt P18031); test = degrader, bio-layer interferometry; conditions = 15.6 nM, biotinylated protein immobilised; how to read = higher = more binding; endpoint = BLI binding response; value = 0.0437 a.u.; Compound = CC1(C)C[C@@H](Nc2cccc(-c3sc(C(=O)O)c(OCC(=O)O)c3Cl)c2)CCN1S(=O)(=O)Cc1cccc(NC(=O)CN2CCC(c3ccc4c(c3)oc(=O)n4C3CCC(=O)NC3=O)CC2)c1 (stereo partly shown)
target = folP; test = CETSA HiBiT; system = Escherichia coli, whole cells; endpoint = melting temperature; value = 55.6 °C; Compound = COC(=O)CC(C)c1n[nH]c2nc(N)[nH]c(=O)c2c1=O (stereo not shown)
target = CDC2-like kinase 1 (Trypanosoma brucei brucei, UniProt Q382U0); test = ADP-Glo; conditions = 10 µM; endpoint = kinase activity; value = -7.97% and -7.91%; Compound = Cc1cc(C(=O)Nc2nc3cccc(C)c3n2[C@H]2CCCCN(C(=O)/C=C/CN(C)C)C2)ccn1
target = folP; test = CETSA HiBiT; system = Escherichia coli, cell lysate; conditions = concentration not given; how to read = reference: DMSO; endpoint = melting temperature shift; value = 15.9 °C; Compound = Cn1nc(CO)c(=O)c2c(=O)[nH]c(N)nc21
target = T1, RNA aptamer; test = fluorescence titration; endpoint = Kd; value = 0.31 nM; Compound = Cc1ccc2c(c1)N(C)C=CC2=Cc1sc2ccccc2[n+]1C
target = Isocitrate dehydrogenase [NADP], mitochondrial, heterodimer with wild-type (IDH2, Homo sapiens, UniProt P48735, R172K); test = forward reaction; conditions = 1 h preincubation, wild type; endpoint = maximum inhibition; value = 77.6 ± 2.5%; Compound = C[C@@H](Nc1nc(N[C@H](C)C(F)(F)F)nc(-c2cccc(Cl)n2)n1)C(F)(F)F
target = Cullin-4B (Homo sapiens, UniProt Q13620); test = biotinylated probe pull-down, refers to: CUL4B; conditions = 10 µM probe; how to read = reference: heavy over light; endpoint = SILAC ratio; value = 1.61; Compound = Cc1cc(C)cc(COc2cc3c(cc2OCc2cc(C)cc(C)c2)C2CC(O)(Cc4cn(CCOCCOCCNC(=O)CCCCC5SCC6NC(=O)NC65)nn4)CC(C)N2CC3)c1 (stereo not shown)
target = folP; test = CETSA HiBiT; system = Escherichia coli, whole cells; conditions = concentration not given; how to read = reference: whole cell over lysate ΔTm; endpoint = target engagement efficiency; value = 10.5%; Compound = Cn1nc(CCCC(=O)O)c(=O)c2c(=O)[nH]c(N)nc21
target = Rhodopsin (RHO, Homo sapiens, UniProt P08100, E181K); test = ER retention, immunostaining co-localization, refers to: opsin with calnexin; system = COS-7 transfected E181K; conditions = 1.00 µM; endpoint = Pearson correlation coefficient; value = 0.79; Compound = CC(C=CC=C(C)C=CC1=C(C)CCCC1(C)C)=CC=O
target = Catechol O-methyltransferase (COMT, Homo sapiens, UniProt P21964); test = UV; how to read = reference: native over denatured target; endpoint = binding index; value = 0.35; Compound = COc1c(O[C@@H]2O[C@H](C(=O)O)[C@@H](O)[C@H](O)[C@H]2O)cc(O)c2c(=O)cc(-c3ccccc3)oc12
target = T2, RNA aptamer; test = X-ray crystallography; endpoint = binding; value = binds; Compound = CN1C=C/C(=C\c2sc3ccccc3[n+]2CC(=O)NCc2ccccc2F)c2ccccc21
target = Isocitrate dehydrogenase [NADP] cytoplasmic (IDH1, Homo sapiens, UniProt O75874); test = competitive isoTOP-ABPP; system = proteome, soluble, MDA-MB-231; conditions = 100 µM, 60 min, with: iodoacetamide probe; how to read = reference: DMSO over compound-treated, higher = stronger cysteine blockade; endpoint = isoTOP-ABPP competition ratio; value = 1.1; Compound = CCCCCCCCCCCCC/C=C/C=O
target = Protein Mdm4 (MDM4, Homo sapiens, UniProt O15151); test = thermal stability, DSF; conditions = 30 µM; endpoint = ΔTm; value = 1.36 °C; Compound = O=C(N[C@@H](Cn1cc(-c2ccc(F)cc2F)nn1)C(=O)O)OCC1c2ccccc2-c2ccccc21
target = RecQ-like DNA helicase BLM, residues 636–1298 (BLM, Homo sapiens, UniProt P54132); test = ATPase activity, ADP-Glo; conditions = 0.24 µM, 1 h; endpoint = remaining activity; value = 90%; Compound = COc1ccccc1-c1ccncc1C(=O)Nc1nnc(OCc2ccc(Cl)cc2)s1
target = Flap endonuclease 1 (Homo sapiens, UniProt P39748); test = ITC; conditions = concentration not given, pH 7.5, 25 °C, with: 8 mM Mg2+; endpoint = binding stoichiometry; value = 1.05; Compound = O=c1c2ccccc2n(CC2CC2)c(=O)n1O
target = P2X purinoceptor 7 (Ailuropoda melanoleuca, UniProt G1M6C4); test = ATP-evoked current, inhibitor, whole-cell patch clamp; system = HEK293 transfected; conditions = 1 µM; how to read = reference: ATP alone; endpoint = inhibition ratio; value = 0.68 and 0.84 and 0.57 and 0.66; Compound = COc1ccccc1CCN1CNc2c(c(=O)[nH]c(=O)n2-c2cccc(Cl)c2C)C1
target = Kelch-like ECH-associated protein 1, Kelch domain (KEAP1, Homo sapiens, UniProt Q14145); test = ITC; conditions = concentration not given; endpoint = binding stoichiometry; value = 0.99; Compound = CC(=O)N[C@@H](CO)C(=O)N[C@@H](CC(C)C)C(=O)N[C@@H](CCC(=O)O)C(=O)N[C@@H](CCC(=O)O)C(=O)N1CCC[C@H]1C(=O)N[C@@H](Cc1c[nH]cn1)C(=O)N[C@@H](COP(=O)(O)O)C(=O)N1CCC[C@H]1C(=O)N[C@@H](CCC(=O)O)C(=O)N[C@H](C(=O)NCC(=O)N[C@@H](CCC(=O)O)C(=O)N[C@@H](CCCCN)C(=O)N[C@H](C(=O)N[C@H](C(=O)N[C@@H](C)C(=O)NCC(=O)N[C@@H](CCC(=O)O)C(=O)N[C@H](C(=O)N[C@@H](CC(N)=O)C(N)=O)C(C)C)C(C)C)C(C)C)[C@@H](C)O
target = Acetyl-CoA synthetase (Cryptococcus neoformans, UniProt J9VFT1); test = enzyme activity, inhibitor, coupled pyrophosphate; conditions = 7.81 µM; endpoint = remaining activity; value = 38.5% and 56.6%; Compound = CN(Cc1cc(C2CC2)on1)C(=O)c1cccc(-c2ccc3c(c2)CCO3)c1
target = TAR DNA-binding protein 43, aggregated (TARDBP, Homo sapiens, UniProt Q13148); test = radioligand binding; system = human, FTLD-TDP type B extract; conditions = with: radioligand 1.29 nM; endpoint = specific binding; value = 0.384 nM and 0.653 nM; Compound = O=C1c2sc(-c3ccc(N4CCC(F)C4)nc3F)nc2CCN1c1cccnc1 (stereo not shown)
target = V-type proton ATPase catalytic subunit A (ATP6V1A, Homo sapiens, UniProt P38606); test = competitive isoTOP-ABPP; system = proteome, soluble, MDA-MB-231; conditions = 100 µM, with: iodoacetamide probe; how to read = reference: DMSO over compound-treated, higher = stronger cysteine blockade; endpoint = isoTOP-ABPP competition ratio; value = 1.2; Compound = CCCCCC=CC=C1C(=O)C=CC1CC=CCCCC(=O)O (stereo not shown)
target = Dipeptidyl peptidase 9 (DPP9, Homo sapiens, UniProt Q86TI2); test = enzyme activity, inhibitor; conditions = 5 µM; endpoint = activity vs control; value = > 90%; Compound = CCC1(CC)C(=O)N(c2cc(O[Si](C)(C)C(C)(C)C)cc(C(=O)N3CCN(Cc4ccc(Br)cc4)CC3)c2)C1=O
target = Type 1 fimbrin D-mannose specific adhesin, lectin domain (fimH, Escherichia coli K-12, UniProt P08191); test = isothermal titration calorimetry; conditions = concentration not given, 37 °C; endpoint = enthalpy change (ΔH obs); value = -14.6 kcal/mol; Compound = CCCCCCCO[C@H]1O[C@H](CO)[C@@H](O)[C@H](O)[C@@H]1O
target = folP; test = CETSA HiBiT; system = Escherichia coli, whole cells; conditions = concentration not given; how to read = reference: whole cell over lysate ΔTm; endpoint = target engagement efficiency; value = 37.9%; Compound = Cn1nc(COC(=O)c2ccccc2)c(=O)c2c(=O)[nH]c(N)nc21
target = T3, RNA aptamer, L4 loop replaced by UUCG; test = SPR; conditions = 25 °C, read off a plot; endpoint = Kd; value = 25 nM; Compound = Fc1ccc(Nc2nc(NCc3ncccn3)nc(Nc3ccccc3)n2)cc1
target = Peptidyl-prolyl cis-trans isomerase NIMA-interacting 1 (PIN1, Homo sapiens, UniProt Q13526); test = protein degradation, degrader; system = human cancer cell lines; conditions = 5 µM; endpoint = Dmax; value = ~100%; Compound = NC(=O)[C@H](Cc1c[nH]c2ccc(F)cc12)NC(=O)[C@@H]1CCCCN1C(=O)[C@@H]1Cc2c([nH]c3ccccc23)CN1C(=O)CCl
target = T4, RNA aptamer; test = fluorescence titration; endpoint = Kd; value = 31.7 nM; Compound = COc1ccc(-c2ccc3c(c2)C(=Cc2sc4ccccc4[n+]2CC(=O)NCCOCCOCCOCCNC(=O)CCCC[C@@H]2SC[C@@H]4NC(=O)N[C@@H]42)C=CN3C)cc1
target = Thioredoxin-dependent peroxide reductase, mitochondrial (PRDX3, Homo sapiens, UniProt P30048, A142E/C229S/S139E); test = MALDI-TOF, refers to: CP adduct; system = PRDX3 C229S; conditions = 200 µM, 37 °C; endpoint = adduct formation rate; value = 0.091 ± 0.005 min⁻¹; Compound = C=C(NC(=O)c1csc(-c2cccnc2)n1)C(=O)NC(=C)C(=O)OC
target = folP; test = CETSA HiBiT; system = whole cells; endpoint = melting temperature; value = 64.7 °C; Compound = Cc1n[nH]c2nc(N)[nH]c(=O)c2c1=O
target = Interleukin-1 receptor-like 2 (IL1RL2, Homo sapiens, UniProt Q9HB29); test = reporter gene (SEAP), inhibitor, HEK-Blue IL-36R reporter; system = HEK-Blue IL-36R cells; conditions = 0.005 µM, 6 h, with: IL-36γ 0.3 ng/mL; endpoint = remaining activity; value = 102%; Compound = CC(C)[C@@H]1NC(=O)[C@H](Cc2ccccc2)NC(=O)CSC[C@@H](C(N)=O)NC(=O)[C@H](CCC(=O)O)NC(=O)[C@H](CO)NC(=O)[C@H](Cc2c[nH]c3cccc(Cl)c23)NC(=O)[C@H](C2CCCCC2)NC(=O)[C@H](C(C)C)NC(=O)[C@H](Cc2ccc(O)cc2)NC(=O)[C@H](CC(=O)O)NC(=O)[C@H](Cc2c[nH]c3ccccc23)NC(=O)[C@H](Cc2ccc(N)nc2)NC(=O)[C@H](Cc2c[nH]c3ccc(Cl)cc23)NC(=O)[C@H](CCC(=O)O)NC1=O
